Measured values collected from several papers.
Each numbered part is a random draw from the data of one study; scales do not carry over between parts.

Block 1
Target: Interferon regulatory factor 5, full length, phosphomimetic (IRF5, Homo sapiens, UniProt Q13568-2, residues 1-514, S451D/S453D/S456D/S462D)
Technique: protein-binding microarray
Form: double-stranded DNA, one strand shown
Medium: in vitro
Concentration: 940 nM top
Setting: 60-bp whole probe
Added: salmon DNA 0.4 mg/ml
Reference: random background probes
Reading: higher = stronger binding
All sequences stand within: GCCTAGCAC … GTCTTGATTCGCTTGACGCTGCTG
Strand | fitted relative affinity
GACGGTTTCGGGACTGCGGACGTGCTA | 6.64 z-score
TCAGCTTCCTCTTTACTACTGTGCTAG | 1.1 z-score
TCAACTTTCTCTGCTCTTACTGTGCTA | 1.93 z-score
TTAGTTCTCGGACTGGGTTAGTGCTAG | 1.01 z-score
TTAGAACTGCTTTTCCTTTAGTGCTAG | 0.1 z-score
CTGGAGAGACGGAGTCTCCAGTGCTAG | -0.651 z-score
GACGAACTGAGACTGCAGACGTGCTAG | -0.327 z-score
TTAGATATGAGTATCGATTAGTGCTAG | 4.24 z-score

Block 2
Target: Histone acetyltransferase KAT6A, both winged helices, GST fusion (KAT6A, Homo sapiens, UniProt Q92794, residues 1-181)
Technique: protein binding microarray
Form: double-stranded DNA, one strand shown
Medium: in vitro
Concentration: not given
Setting: 8-mer, flanks averaged, mean of 2 arrays, mostly near background
Reference: not given
Reading: higher = stronger binding
Construct (chain): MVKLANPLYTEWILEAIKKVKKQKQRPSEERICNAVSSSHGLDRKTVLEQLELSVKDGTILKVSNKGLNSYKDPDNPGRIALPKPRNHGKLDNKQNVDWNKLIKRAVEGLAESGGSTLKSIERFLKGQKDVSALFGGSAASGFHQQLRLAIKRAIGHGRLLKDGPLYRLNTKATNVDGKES
Strand | E-score
TAGCCATA | -0.0729
ACAAGTAT | -0.0608
GATAATGC | -0.00713
AACGTTGC | -0.00779
ATGGGAAT | -0.114
CATGGCCA | -0.191

Block 3
Target: Phosphate system positive regulatory protein PHO4, full length, GST-tagged (PHO4, Saccharomyces cerevisiae, UniProt P07270, residues 1-312)
Technique: competition protein-binding microarray
Form: double-stranded DNA, one strand shown
Medium: in vitro
Concentration: 2 µM
Setting: whole 60-bp probe, lowest competitor level
Added: Cbf1 competitor, 0.05 µM
Reading: higher = stronger binding
Construct (chain): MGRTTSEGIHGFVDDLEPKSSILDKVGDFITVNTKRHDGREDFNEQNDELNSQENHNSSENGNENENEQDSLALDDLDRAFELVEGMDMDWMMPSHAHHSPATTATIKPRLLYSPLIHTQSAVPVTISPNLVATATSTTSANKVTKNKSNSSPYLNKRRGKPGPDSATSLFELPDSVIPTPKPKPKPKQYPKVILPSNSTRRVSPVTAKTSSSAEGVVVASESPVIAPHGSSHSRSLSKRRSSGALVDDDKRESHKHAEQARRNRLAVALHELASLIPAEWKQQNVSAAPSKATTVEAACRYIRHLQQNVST
Strand | fluorescence intensity [a.u.]
TCCTTCTTACCTTGGCGCATGATGTTGTTTGTGATGGTCTTGATTCGCTTGACGCTGCTG | 8490
AGCCACAGTTCGAGTCACGTGCGGACCATGCTGACTGTCTTGATTCGCTTGACGCTGCTG | 17200
CGTCCTAGTGATTGTGCAGTGGGTGCCATGAGGAAGGTCTTGATTCGCTTGACGCTGCTG | 6840
TAGGCCGTCTTATGTAACGTGGTGAACGCTGCCTAGGTCTTGATTCGCTTGACGCTGCTG | 7180

Further values, each from its own experiment
Substance | target | test | test system | setting | how to read | endpoint | result
PhoQ, residues 284 288 289 292 302 303 ALAMYF | PhoP, residues 12 14 15 18 19 SMASL (Escherichia coli, UniProt P23836) | Sort-seq, measured: YFP reporter | E. coli | PhoQ-PhoP variant library, added: 10 µM Mg2+ | reference: high Mg2+ state, higher = stronger signaling | fold induction | 2.36

A few entries again (block 2):
Strand | E-score
ATGGGAAT | -0.114
CATGGCCA | -0.191
